# Published values collected from several papers.
# Lines come from different studies, so protocols differ.
# Cell line: K562
SMILES,test,conditions,scale,endpoint,value
CCN(CC)c1ccc(C=NNC(=O)CSc2nc3ccccc3c(=O)n2Cc2ccc(S(N)(=O)=O)cc2)c(O)c1,cell growth,,,TGI,> 100 µM
Cn1cncc1C1=CN(c2ncnc3[nH]cnc23)CCS1,,leukemia,,TGI,> 200 µM
CCN(CC)CCNC(=O)c1c(C)[nH]c(/C=C2\C(=O)N(C)c3ccc(F)cc32)c1C,item: ACC phospho-Ser79,"5.0 µM, 2 h, glucose-free medium, with: 12 mM 2-deoxyglucose",baseline: DMSO,phospho-ACC level,97.1%
CCOC(=O)CSc1nc(-c2ccc(Cl)cc2)c2c(NC(=O)c3ccccc3)nnc-2[nH]1,SRB,"10 µM, NCI60 single-dose screen",baseline: untreated,cell growth,82.6%
C[C@H]1[C@@H](O)O[C@@H]2O[C@@]3(C)CC[C@H]4[C@H](C)CC[C@@H]1[C@@]24OO3,"annexin V/PI flow cytometry, item: annexin V-/PI-","3.2 µM, 24 h",,viable cells,94.7%
Cc1cc(=O)[nH]c(=O)n1Cc1cn(-c2c3ccccc3nc3ccccc23)nn1,NCI60 single-dose screen,10 µM,,growth percentage,7.1%
CCCCN1CCN(c2ccc3[nH]c(-c4ccc5[nH]c(-c6ccc(OCC)cc6)nc5c4)nc3c2)CC1,SRB,"10 µM, 48 h",,growth percent,-29.1%
Cc1n[nH]c(C)c1CSc1ccccc1,cytotoxicity,,baseline: IC50 HEK293 over IC50 K562,selectivity index,1.3
CCCCN1CCN(c2ccc3[nH]c(-c4ccc5[nH]c(-c6ccc(OCC)c(OCC)c6)nc5c4)nc3c2)CC1,SRB,"10 µM, 48 h",,growth percent,-37.1%
C#C[C@@]1(O)[C@@H](CO)O[C@@H](n2cc(Br)c3c(N)ncnc32)[C@@H]1O,SRB,NCI-60 screen,,TGI,> 100 µM
CCCN1CCN(c2ccc3[nH]c(-c4ccc5[nH]c(-c6ccc(C(F)(F)F)cc6)nc5c4)nc3c2)CC1,SRB,"10 µM, 48 h",,growth percent,-51.4%
O=C1NC(c2ccccc2)(c2ccccc2)C(=O)N1Cc1cn(-c2c3ccccc3nc3ccccc23)nn1,NCI60 single-dose screen,10 µM,,growth percentage,39.2%
Cc1cc(C)n(C(=S)[S][Au][PH](CCCCCC[PH]([Au][S]C(=S)n2nc(C)cc2C)(c2ccccc2)c2ccccc2)(c2ccccc2)c2ccccc2)n1,"cell growth, NCI-60 screen",leukemia,,log10 TGI,-5.24
CCCCN1CCN(c2ccc3nc(-c4ccc5nc(-c6cc(OC)ccc6OC)[nH]c5c4)[nH]c3c2)CC1,SRB,"10 µM, 48 h",,growth percent,76.2%
Cc1cc(C)n(-c2nc(-c3ccc(Cl)cc3)c3c(NC(=O)c4ccccc4)nnc-3[nH]2)n1,SRB,"10 µM, NCI60 single-dose screen",baseline: untreated,cell growth,105%
O=c1ccn(Cc2cn(-c3c4ccccc4nc4ccccc34)nn2)c(=O)[nH]1,NCI60 single-dose screen,10 µM,,growth percentage,33.1%
C#C[C@@]1(O)[C@@H](CO)O[C@@H](n2cc(Cl)c3c(N)ncnc32)[C@@H]1O,SRB,NCI-60 screen,,TGI,> 100 µM
Cc1cc(=O)[nH]c(=O)n1Cc1cn(-c2cc3ccccc3oc2=O)nn1,NCI60 single-dose screen,10 µM,,growth percentage,94.9%
O=C(Nc1nnc2n3c(nc(-c4ccc(Cl)cc4)c1-2)SCC3=O)c1ccccc1,SRB,"10 µM, NCI60 single-dose screen",baseline: untreated,cell growth,99.5%
CCCN1CCN(c2ccc3[nH]c(-c4ccc5[nH]c(-c6ccc(OCC)c(OCC)c6)nc5c4)nc3c2)CC1,SRB,"10 µM, 48 h",,growth percent,-5.53%
CC1(C)CCC(CN2CCN(c3ccc(C(=O)NS(=O)(=O)c4ccc(NCC5CCOCC5)c([N+](=O)[O-])c4)c(Oc4cnc5[nH]ccc5c4)c3)CC2)=C(c2ccc(Cl)cc2)C1,"annexin V/PI flow cytometry, item: annexin V-/PI-","3.2 µM, 24 h",,viable cells,95.7%
O=C(Nc1nnc2n3c(Cc4ccccc4)n[nH]c3nc(-c3ccc(Cl)cc3)c1-2)c1ccccc1,SRB,"10 µM, NCI60 single-dose screen",baseline: untreated,cell growth,100%
CCOc1ccc(-c2nc3cc(-c4nc5cc(N6CCN(C)CC6)ccc5[nH]4)ccc3[nH]2)cc1OCC,SRB,"10 µM, 48 h",,growth percent,12.8%
CSc1nc(-c2ccc(Cl)cc2)c2c(NC(=O)c3ccccc3)nnc-2[nH]1,SRB,"10 µM, NCI60 single-dose screen",baseline: untreated,cell growth,87.3%
CCc1ccccc1-n1nc(C)c(C(=O)Nc2ccc3ccccc3n2)c1C,"western blot, item: β-catenin",concentration not given,baseline: control,protein level,decreased
